Literature values, collected from citations in different studies.
Each line is one published result; not all experiments were run side by side. Numbers after ± are the reported error. ≈ marks a conversion by molar mass, not a printed value.
UniProt O00750, sequence (whole entry, looked up): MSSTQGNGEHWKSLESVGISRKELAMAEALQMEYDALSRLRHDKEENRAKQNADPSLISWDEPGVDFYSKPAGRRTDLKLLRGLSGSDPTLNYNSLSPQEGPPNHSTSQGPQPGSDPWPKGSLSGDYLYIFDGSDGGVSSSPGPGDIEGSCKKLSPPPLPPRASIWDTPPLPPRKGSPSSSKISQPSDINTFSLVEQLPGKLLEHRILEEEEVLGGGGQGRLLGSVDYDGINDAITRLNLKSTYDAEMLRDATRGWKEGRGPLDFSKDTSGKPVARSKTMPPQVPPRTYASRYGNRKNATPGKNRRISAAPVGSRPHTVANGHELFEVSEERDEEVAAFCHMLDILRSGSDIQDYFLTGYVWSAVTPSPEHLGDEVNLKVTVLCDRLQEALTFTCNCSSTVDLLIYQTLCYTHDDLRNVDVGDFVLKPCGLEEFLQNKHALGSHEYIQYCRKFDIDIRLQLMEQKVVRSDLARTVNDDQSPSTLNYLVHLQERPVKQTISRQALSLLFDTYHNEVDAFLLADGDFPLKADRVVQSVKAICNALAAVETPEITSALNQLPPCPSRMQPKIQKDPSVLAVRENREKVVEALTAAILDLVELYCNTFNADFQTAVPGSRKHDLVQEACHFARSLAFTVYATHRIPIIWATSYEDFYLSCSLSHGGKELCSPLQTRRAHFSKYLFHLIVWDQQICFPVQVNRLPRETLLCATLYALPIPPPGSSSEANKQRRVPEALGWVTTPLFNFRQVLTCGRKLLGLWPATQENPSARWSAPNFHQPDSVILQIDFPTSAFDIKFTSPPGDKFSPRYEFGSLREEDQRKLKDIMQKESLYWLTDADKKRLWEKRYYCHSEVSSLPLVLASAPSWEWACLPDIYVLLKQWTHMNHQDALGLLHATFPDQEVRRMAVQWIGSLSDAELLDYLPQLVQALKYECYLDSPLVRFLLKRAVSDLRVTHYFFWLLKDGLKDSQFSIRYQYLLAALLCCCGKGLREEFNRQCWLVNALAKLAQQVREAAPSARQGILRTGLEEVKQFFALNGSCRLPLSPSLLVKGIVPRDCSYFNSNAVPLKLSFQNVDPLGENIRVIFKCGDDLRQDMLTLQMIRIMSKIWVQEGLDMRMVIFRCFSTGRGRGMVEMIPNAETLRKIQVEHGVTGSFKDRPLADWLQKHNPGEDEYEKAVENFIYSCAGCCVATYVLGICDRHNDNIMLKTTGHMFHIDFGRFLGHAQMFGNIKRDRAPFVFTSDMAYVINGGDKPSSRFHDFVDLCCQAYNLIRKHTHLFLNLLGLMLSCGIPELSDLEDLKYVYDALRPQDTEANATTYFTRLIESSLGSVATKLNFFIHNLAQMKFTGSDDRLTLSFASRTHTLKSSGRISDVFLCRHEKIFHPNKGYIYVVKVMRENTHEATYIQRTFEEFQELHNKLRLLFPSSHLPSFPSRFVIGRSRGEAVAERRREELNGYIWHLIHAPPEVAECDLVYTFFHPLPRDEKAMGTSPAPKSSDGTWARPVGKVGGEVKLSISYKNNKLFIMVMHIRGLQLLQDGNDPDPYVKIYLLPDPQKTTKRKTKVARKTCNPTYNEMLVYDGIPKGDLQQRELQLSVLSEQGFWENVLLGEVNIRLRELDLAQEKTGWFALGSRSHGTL
UniProt Q8TCC7, sequence (whole entry, looked up): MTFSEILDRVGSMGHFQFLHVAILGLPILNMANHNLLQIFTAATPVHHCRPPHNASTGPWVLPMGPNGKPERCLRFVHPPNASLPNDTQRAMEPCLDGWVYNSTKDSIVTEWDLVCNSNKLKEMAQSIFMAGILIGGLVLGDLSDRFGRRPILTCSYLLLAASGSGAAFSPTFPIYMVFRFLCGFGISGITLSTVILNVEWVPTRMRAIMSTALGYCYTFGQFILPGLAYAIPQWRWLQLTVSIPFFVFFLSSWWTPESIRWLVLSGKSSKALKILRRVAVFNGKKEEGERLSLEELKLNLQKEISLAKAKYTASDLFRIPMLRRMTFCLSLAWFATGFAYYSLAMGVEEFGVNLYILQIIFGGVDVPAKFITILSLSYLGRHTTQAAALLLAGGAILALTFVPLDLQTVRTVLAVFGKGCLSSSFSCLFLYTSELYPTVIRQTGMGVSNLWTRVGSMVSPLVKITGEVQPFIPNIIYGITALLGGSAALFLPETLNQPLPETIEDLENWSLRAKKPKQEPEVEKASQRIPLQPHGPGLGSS
UniProt P14867, sequence (whole entry, looked up): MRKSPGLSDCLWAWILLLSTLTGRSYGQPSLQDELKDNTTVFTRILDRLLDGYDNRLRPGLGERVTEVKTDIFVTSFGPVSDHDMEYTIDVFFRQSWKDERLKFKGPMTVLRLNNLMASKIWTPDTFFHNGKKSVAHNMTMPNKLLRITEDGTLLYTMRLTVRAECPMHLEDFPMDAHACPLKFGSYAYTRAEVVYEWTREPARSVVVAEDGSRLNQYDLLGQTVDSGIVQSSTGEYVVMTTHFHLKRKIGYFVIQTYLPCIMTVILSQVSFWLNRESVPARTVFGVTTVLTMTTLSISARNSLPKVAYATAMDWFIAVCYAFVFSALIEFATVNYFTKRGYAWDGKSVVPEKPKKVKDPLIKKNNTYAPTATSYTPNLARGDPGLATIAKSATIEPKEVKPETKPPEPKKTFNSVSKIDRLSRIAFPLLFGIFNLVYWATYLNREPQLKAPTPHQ
UniProt P28472, sequence (whole entry, looked up): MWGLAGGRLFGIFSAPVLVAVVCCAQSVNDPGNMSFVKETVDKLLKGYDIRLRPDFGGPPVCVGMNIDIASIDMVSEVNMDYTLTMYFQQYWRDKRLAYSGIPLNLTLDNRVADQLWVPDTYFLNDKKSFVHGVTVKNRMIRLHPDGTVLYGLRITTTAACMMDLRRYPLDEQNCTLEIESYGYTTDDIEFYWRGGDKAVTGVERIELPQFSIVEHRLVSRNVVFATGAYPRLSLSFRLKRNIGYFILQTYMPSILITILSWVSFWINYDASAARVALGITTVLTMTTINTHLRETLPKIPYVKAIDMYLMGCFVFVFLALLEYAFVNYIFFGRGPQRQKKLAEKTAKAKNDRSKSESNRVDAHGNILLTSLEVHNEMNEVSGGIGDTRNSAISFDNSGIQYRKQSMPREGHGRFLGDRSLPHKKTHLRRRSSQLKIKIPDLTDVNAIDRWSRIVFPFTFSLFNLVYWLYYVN
UniProt Q9HC98, sequence (whole entry, looked up): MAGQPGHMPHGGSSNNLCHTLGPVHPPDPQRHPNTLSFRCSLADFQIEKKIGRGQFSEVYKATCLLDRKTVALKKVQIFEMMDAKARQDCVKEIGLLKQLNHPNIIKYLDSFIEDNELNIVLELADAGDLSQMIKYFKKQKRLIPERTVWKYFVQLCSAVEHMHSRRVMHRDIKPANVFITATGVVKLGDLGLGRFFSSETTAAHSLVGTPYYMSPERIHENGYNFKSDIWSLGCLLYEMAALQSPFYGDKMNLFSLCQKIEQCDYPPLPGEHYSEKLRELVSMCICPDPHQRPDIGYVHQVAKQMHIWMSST
UniProt P02769, sequence (whole entry, looked up): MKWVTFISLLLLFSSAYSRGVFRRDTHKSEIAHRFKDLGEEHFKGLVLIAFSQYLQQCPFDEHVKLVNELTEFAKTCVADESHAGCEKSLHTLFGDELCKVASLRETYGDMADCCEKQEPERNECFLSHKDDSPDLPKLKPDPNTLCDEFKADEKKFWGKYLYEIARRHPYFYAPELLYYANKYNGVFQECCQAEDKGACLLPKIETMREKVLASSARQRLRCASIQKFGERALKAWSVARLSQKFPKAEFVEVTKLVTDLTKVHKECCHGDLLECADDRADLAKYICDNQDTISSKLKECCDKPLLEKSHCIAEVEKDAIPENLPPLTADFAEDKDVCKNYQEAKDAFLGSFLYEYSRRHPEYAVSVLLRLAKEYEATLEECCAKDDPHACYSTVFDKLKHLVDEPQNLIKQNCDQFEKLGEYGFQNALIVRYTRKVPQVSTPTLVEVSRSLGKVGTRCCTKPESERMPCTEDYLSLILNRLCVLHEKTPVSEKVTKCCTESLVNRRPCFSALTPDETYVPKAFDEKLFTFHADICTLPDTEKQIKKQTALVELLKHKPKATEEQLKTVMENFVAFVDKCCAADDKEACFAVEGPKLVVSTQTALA
UniProt Q9PHN5, sequence (whole entry, looked up): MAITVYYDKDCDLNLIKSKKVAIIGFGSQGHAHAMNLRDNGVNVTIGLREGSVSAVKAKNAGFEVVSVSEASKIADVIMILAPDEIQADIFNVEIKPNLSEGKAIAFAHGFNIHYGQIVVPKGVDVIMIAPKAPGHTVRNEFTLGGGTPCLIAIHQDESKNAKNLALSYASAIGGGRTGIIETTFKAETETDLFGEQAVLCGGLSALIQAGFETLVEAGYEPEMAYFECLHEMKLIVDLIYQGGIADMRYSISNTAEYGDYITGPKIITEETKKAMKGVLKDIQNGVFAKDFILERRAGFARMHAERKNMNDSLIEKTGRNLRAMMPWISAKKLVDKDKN
UniProt O60678, sequence (whole entry, looked up): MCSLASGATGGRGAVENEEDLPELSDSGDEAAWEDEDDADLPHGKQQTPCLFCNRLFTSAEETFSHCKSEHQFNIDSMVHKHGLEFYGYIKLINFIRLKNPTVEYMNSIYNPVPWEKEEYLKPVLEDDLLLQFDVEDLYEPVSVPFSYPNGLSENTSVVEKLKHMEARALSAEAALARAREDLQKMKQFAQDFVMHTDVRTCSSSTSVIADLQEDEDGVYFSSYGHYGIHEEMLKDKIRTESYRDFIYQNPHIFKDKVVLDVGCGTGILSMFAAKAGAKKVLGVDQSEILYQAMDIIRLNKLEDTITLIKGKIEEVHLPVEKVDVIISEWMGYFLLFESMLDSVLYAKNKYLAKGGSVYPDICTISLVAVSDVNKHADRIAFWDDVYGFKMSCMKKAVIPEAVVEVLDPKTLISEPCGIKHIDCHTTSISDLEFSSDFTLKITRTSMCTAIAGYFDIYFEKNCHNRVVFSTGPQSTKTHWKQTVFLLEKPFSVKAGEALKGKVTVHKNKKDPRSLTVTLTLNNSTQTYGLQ

SMILES	tested on	assay	system	setting	how to read	measurement	value
Nc1nc(=O)n([C@H]2C[C@H](O)[C@@H](CO)O2)cc1I	cytidine deaminase (human)	substrate		concentration not given		Km	10 µM
O=C(O)CN(CC(=O)O)[C@H]1CCCC[C@@H]1N(CC(=O)O)Cc1ccccn1	Albumin (ALB, Bos taurus, UniProt P02769)			added: 0.67 mM albumin		r1 relaxivity	3.8 mM⁻¹ s⁻¹
O=C(Nc1nc2ccccc2[nH]1)c1ccccc1	RAR-related orphan receptor gamma			PubChem AID 2551		activity	6.3 µM
Cc1cn([C@H]2C[C@H](O)[C@@H](CO)O2)c(=O)nc1N	cytidine deaminase (human)	substrate		concentration not given		Km	8 µM
CC(C)(O/N=C(\C(=O)N[C@@H]1C(=O)N2C(C(=O)[O-])=C(C[N+]3(CCNC(=O)c4ccc(O)c(O)c4Cl)CCCC3)CS[C@H]12)c1csc(N)n1)C(=O)O	L1	hydrolysis by enzyme, substrate				Km	510 µM
COC(=O)[C@H](c1ccccc1Cl)N1CCc2sccc2C1	CES1					Km	46.4 µM
C=CC(=O)N1CCC(C(=O)NCC(=O)N2CCN(c3nc(-c4cnc(N)nc4C(F)F)nc(N4CCOCC4)n3)CC2)CC1	Phosphatidylinositol 4-phosphate 3-kinase C2 domain-containing subunit beta (PIK3C2B, Homo sapiens, UniProt O00750)	kinase activity		1 µM		remaining activity	21%
O=c1[nH]c2nc(-c3ccccc3)sc2c(=O)n1O	Ketol-acid reductoisomerase (NADP(+)) (ilvC, Campylobacter jejuni subsp. jejuni serotype O:2, UniProt Q9PHN5)					koff	6e-05 s⁻¹
C[C@@H](O)[C@H]1C(=O)N2C(C(=O)O)=C(S[C@@H]3CN[C@H](C(=O)N(C)C)C3)[C@H](C)[C@H]12	Organic anion transporter 3 (SLC22A8, Homo sapiens, UniProt Q8TCC7)	substrate				Km	847 µM
Cc1nc(NC(=O)N2CCC[C@H]2C(N)=O)sc1-c1ccnc(C(C)(C)C(F)(F)F)c1	Phosphatidylinositol 4,5-bisphosphate 3-kinase catalytic subunit beta isoform (PIK3CB, Homo sapiens, UniProt P42338)	KinomeScan competition binding		10 µM		remaining binding	2.9%
O=[N+]([O-])c1cc(C(F)(F)F)ccc1NCc1ccsc1	Endothelial PAS domain-containing protein 1, PAS-B domain (EPAS1, Homo sapiens, UniProt Q99814)	isothermal titration calorimetry		concentration not given, <0.1% DMSO		binding enthalpy	-9.5 kcal/mol
CCN(c1cc(-c2ccc(CN3CCOCC3)cc2)cc(C(=O)NCc2c(C)cc(C)[nH]c2=O)c1C)C1CCOCC1	Protein arginine N-methyltransferase 3 (PRMT3, Homo sapiens, UniProt O60678)	enzyme activity, inhibitor		1 µM		inhibition	2 ± 2%
CNC(C)C1CCC(N)C(OC2C(N)CC(N)C(OC3OCC(C)(O)C(NC)C3O)C2O)O1 (centres unmarked)	Enterobacter cloacae		clinical isolate RKI-No_466/13			MIC	4 µg/mL (≈ 8.38 µM)
N=C1NC(=O)C2(CCc3ccccc32)C(=O)N1 (centres unmarked)	GABA-A receptor alpha-1/beta-3, with gamma-2 subunit (GABRA1/GABRB3, Homo sapiens, UniProt P14867+P28472)	reversal, anesthetic-enhanced desensitization		concentration not given, α1β3γ2 receptor	higher is stronger	inhibition	63%
CC1(C)S[C@@H]2[C@H](NC(=O)[C@H](N)c3ccccc3)C(=O)N2[C@H]1C(=O)O	Enterobacter cloacae		clinical isolate RKI-No_506/15			MIC	> 16 µg/mL
C[N+]1(C)CCC(OC(=O)C(c2ccccc2)c2ccccc2)CC1.[I-]	Muscarinic acetylcholine receptor M2 (CHRM2, Homo sapiens, UniProt P08172)	binding				Hill coefficient	1
CC/C=C(\C)C=O	12-oxophytodienoate reductase OPR1 (isoform 1)	ene-reductase biotransformation, substrate				conversion	96%
COc1cccc(OC)c1-c1cc(C(=O)NC2(C(=O)O)CCCCC2)nn1-c1ccc(F)cc1	Neurotensin receptor type 1 (Ntsr1, Rattus norvegicus, UniProt P20789)	antagonist, FLIPR calcium				Ke	> 10 µM
Nc1cc(C(F)(F)F)c(-c2nc(N3CCOCC3)nc(N3CCOCC3)n2)cn1	Serine/threonine-protein kinase Nek6 (NEK6, Homo sapiens, UniProt Q9HC98)	enzyme activity		10 µM	relative to: untreated	remaining activity	100%
O=C(CCCCCCc1ccccc1)c1ncc(-c2ccccn2)o1	TRP vanilloid receptors			concentration not given		binding	no binding
Cc1cc(NC(=O)c2cccc(NC(=O)/C=C/CN(C)C)c2)ccc1Nc1nccc(-c2cccnc2)n1	Casein kinase II subunit alpha' (CSNK2A2, Homo sapiens, UniProt P19784)	enzyme activity, inhibitor		1 µM	relative to: vehicle	remaining activity	39%
O=C(O)/C(=C/c1c(C(=O)O)[nH]c2cc(Cl)cc(Cl)c12)c1ccccc1	Glutamate receptor ionotropic, NMDA 1 (Grin1, Rattus norvegicus, UniProt P35439)			historical reference value		Hill coefficient	0.6
CC1=CC(=O)N(c2ccccc2)C1=O	12-oxophytodienoate reductase OPR1 (isoform 1)	ene-reductase biotransformation, substrate				conversion	99%
Nc1ncnc2c1ncn2[C@@H]1O[C@H](COP(=O)(O)OP(=O)(O)O)[C@@H](O)[C@H]1O	F-type ATP synthase	substrate				Km	10 to 100 µM
CCC(=O)O[C@]1(C(=O)SCF)[C@H](C)C[C@H]2[C@@H]3C[C@H](F)C4=CC(=O)C=C[C@]4(C)[C@@]3(F)[C@@H](O)C[C@@]21C	Glucocorticoid receptor (Nr3c1, Rattus norvegicus, UniProt P06536)		rat, spleen	intravenous, 90 nmol/kg, 1.15 (unit not given)		receptor occupancy	68.7%
NCCc1c[nH]cn1	uncharacterized protein (Ixodes scapularis, UniProt A0A0N9E2I2)	inhibitor		concentration not given		activity	inactive
O=c1c2ccccc2[se]n1-c1ccccc1	dengue virus NS3 helicase	inhibitor		concentration not given		helicase inhibition	no inhibition
O=C(O)C1=CCCN(CCON=C(c2ccccc2)c2ccccc2)C1	Sodium- and chloride-dependent GABA transporter 1 (Slc6a1, Rattus norvegicus, UniProt P23978)			historical reference value		Hill coefficient	1.1
Nc1ccccc1NC(=O)c1ccc(CNc2nccc(-c3cccnc3)n2)cc1	Histone deacetylase 8 (HDAC8, Homo sapiens, UniProt Q9BY41)	enzyme activity, inhibitor				IC50	inactive

For quick reference, copied from above:
SMILES	tested on	assay	system	setting	how to read	measurement	value
O=c1[nH]c2nc(-c3ccccc3)sc2c(=O)n1O	Ketol-acid reductoisomerase (NADP(+)) (ilvC, Campylobacter jejuni subsp. jejuni serotype O:2, UniProt Q9PHN5)					koff	6e-05 s⁻¹
C[C@@H](O)[C@H]1C(=O)N2C(C(=O)O)=C(S[C@@H]3CN[C@H](C(=O)N(C)C)C3)[C@H](C)[C@H]12	Organic anion transporter 3 (SLC22A8, Homo sapiens, UniProt Q8TCC7)	substrate				Km	847 µM
Cc1nc(NC(=O)N2CCC[C@H]2C(N)=O)sc1-c1ccnc(C(C)(C)C(F)(F)F)c1	Phosphatidylinositol 4,5-bisphosphate 3-kinase catalytic subunit beta isoform (PIK3CB, Homo sapiens, UniProt P42338)	KinomeScan competition binding		10 µM		remaining binding	2.9%
O=[N+]([O-])c1cc(C(F)(F)F)ccc1NCc1ccsc1	Endothelial PAS domain-containing protein 1, PAS-B domain (EPAS1, Homo sapiens, UniProt Q99814)	isothermal titration calorimetry		concentration not given, <0.1% DMSO		binding enthalpy	-9.5 kcal/mol
